Measurements of several laboratories.
Lines come from different studies, so protocols differ. ± marks the error that the study gave.
PPO3: PPO3 (Agaricus bisporus, UniProt C7FF04)
T1: RNA repeat, CUG repeat (Homo sapiens); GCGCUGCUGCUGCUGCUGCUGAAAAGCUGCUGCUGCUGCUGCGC
T2: dsDNA, hairpin; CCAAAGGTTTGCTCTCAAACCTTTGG
T3: DNA hairpin, hairpin, TTTT loop; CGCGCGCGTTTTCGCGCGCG

Cc1cc(N2CCC(CO)(C3CC3)C2=O)cc(C(=O)NCc2cc(F)cc(-c3cnn(C)c3)c2)n1 (stereo not shown)
melting temperature (Proline--tRNA ligase (Plasmodium falciparum, UniProt Q8I5R7); thermal shift; together with: L-proline 2 mM): 75.1 °C

NCCCC[C@H](NC(=O)[C@H](CCCCN)NC(=O)[C@@H](N)CCCCN)C(=O)NCC(=O)NCC(=O)NCCCCCCCCNC(=O)COc1ccc(-c2ccccn2)cc1
association constant (Calmodulin-1, Ca2+-bound (CALM1, Homo sapiens, UniProt P0DP23); binding, quartz crystal microbalance; PBS; 25 °C, together with: Ca2+): 300000 ± 10000 M^–1

CC(C)C[C@H](NC(=O)[C@H](CCCNC(=N)N)NC(=O)[C@@H](N)CS)C(=O)N[C@@H](CC(N)=O)C(=O)O
remaining activity (PPO3; enzyme activity, inhibitor; 25 µM): 86.7%

CC1CCCn2cc(-c3cccc(NC(=O)CCOCCOCCOCCOCCOCCC(=O)Nc4cccc(-c5cn6c(n5)C(C)CCC6)c4)c3)nc21 (stereo not shown)
change in melting temperature (T1, RNA repeat, CUG repeat (Homo sapiens); FRET thermal melting; 50 µM): 1.3 °C

Cc1ncsc1-c1ccc([C@@H]2CCCCCCNC(=O)C[C@@H]3N=C(c4ccc(cc4)OCCCCC(=O)N[C@@H](C(C)(C)C)C(=O)N4C[C@H](O)C[C@H]4C(=O)N2)c2c(sc(C)c2C)-n2c(C)nnc23)cc1
degradation (Bromodomain-containing protein 4, long isoform (BRD4, Homo sapiens, UniProt O60885); degrader, immunoblotting, refers to: BRD4 long isoform; PC-3; 10 nM, 24 h): 78%

CC[C@H](C)[C@H](NC(=O)[C@H](CCCCN)NC(=O)[C@H](CCCCN)NC(=O)[C@@H](NC(=O)[C@H](CCC(=O)O)NC(=O)[C@H](CCC(=O)O)NC(=O)[C@H](CCC(=O)O)NC(=O)[C@H](CO)NC(=O)[C@H](CC(C)C)NC(=O)[C@H](CC(=O)O)NC(=O)[C@H](CC(C)C)NC(=O)CNC(=O)[C@H](C)NC(=O)[C@H](CC(C)C)NC(=O)[C@H](CO)NC(=O)CNC(=O)CNC(=O)CNC(=O)CCCC[C@@H]1SC[C@@H]2NC(=O)N[C@@H]21)C(C)C)C(=O)N[C@@H](CC(C)C)C(=O)N[C@@H](CC(=O)O)C(=O)N[C@@H](CCC(=O)O)C(=O)N[C@H](C(=O)N[C@H](C(=O)N[C@@H](CCCCN)C(=O)N[C@@H](CC(=O)O)C(=O)O)C(C)C)[C@@H](C)CC
Kd ratio (Fab B11 antibody (human); binding, biolayer interferometry; relative to: alanine mutant over wild type): 1.4

Cc1ncsc1-c1ccc(CNC(=O)[C@@H]2C[C@@H](O)CN2C(=O)[C@@H](NC(=O)COCC(C)(COCCOCCOCCNC(=O)C[C@@H]2N=C(c3ccc(Cl)cc3)c3c(sc(C)c3C)-n3c(C)nnc32)COCCOCCOCCNC(=O)C[C@@H]2N=C(c3ccc(Cl)cc3)c3c(sc(C)c3C)-n3c(C)nnc32)C(C)(C)C)cc1
cooperativity α (Bromodomain-containing protein 4, BD2 (BRD4, Homo sapiens, UniProt O60885); AlphaLISA; together with: VCB): 3.5

[64Cu+2].c1cnc(CNCc2ccc(CN3CCCN4CCNCCCN(CC4)CC3)cc2)nc1
tissue uptake (CXCR4; NOD/SCID mouse, U87 and U87-stb-CXCR4 xenografts, blood; iv, 90 min, ex vivo, together with: AMD3465 25 mg/kg sc before tracer): 0.96 ± 0.19 %ID/g

CN(C)c1ccc(/C=C2\Oc3cc(O)ccc3C2=O)cc1
aggregation temperature (ERO1-like protein alpha (Homo sapiens, UniProt Q96HE7); CETSA; PC-9; 100 µM, 1 h): > 60 °C

C#CCOCCOc1ccc(-c2ncc[nH]2)cc1NC(=O)C#Cc1ccccc1
kinact/KI (Transitional endoplasmic reticulum ATPase (VCP, Homo sapiens, UniProt P55072); covalent inhibitor, in-gel fluorescence labelling; recombinant protein): 163000 M⁻¹ s⁻¹

CC(C)n1c(-c2ccc(C(=N)N)s2)nc2cc3nc(-c4ccc(C(=N)N)s4)n(C(C)C)c3cc21
Kd (T2, dsDNA, hairpin; SPR; pH 7.4, Na+ 100 mM): 0.286 µM

[Ru+2].[Ru+2].c1cnc2c(c1)c1nc(-c3ccc(OCCOCCOCCOCCOc4ccc(-c5nc6c7cccnc7c7ncccc7c6[nH]5)cc4)cc3)[nH]c1c1cccnc12.c1cnc2c(ccc3nccnc32)n1.c1cnc2c(ccc3nccnc32)n1.c1cnc2c(ccc3nccnc32)n1.c1cnc2c(ccc3nccnc32)n1
Kd (T3, DNA hairpin, hairpin, TTTT loop; BLI; pH 7.04, K+ 100 mM): 0.94 µM

COc1cc(CNC(=O)C[C@H](C)CCC=C(C)C)ccc1OCc1cn(-c2ccccc2)nn1
growth percent (UACC-257 melanoma cells; SRB; 10 µM, 48 h): 101%

CC(C)C[C@H](NC(=O)[C@H](CO)NC(=O)[C@H](CC(C)C)NC(=O)[C@@H]1CCCN1C(=O)CNC(=O)[C@H](Cc1ccccc1)NC(=O)[C@@H](N)Cc1ccccc1)C(=O)N[C@@H](CCCNC(=N)N)C(=O)N[C@@H](CO)C(=O)N[C@@H](CCCCN)C(=O)O
hydrolysis product (Matrix metalloproteinase-9 (MMP9, Homo sapiens, UniProt P14780); substrate, HPLC; 500 µM, 72 h, pH 7.5, 37 °C): 100%

CC(C)CC(NC(=O)C(NC(=O)NC(C(=O)O)C(C)C)C1CCNC(=N)N1)C(=O)NCCCNC(C(=O)O)C(OC1OC(CN)C(O)C1O)C1OC(n2ccc(=O)[nH]c2=O)C(O)C1O (stereo not shown)
ΔH (Phospho-N-acetylmuramoyl-pentapeptide-transferase (mraY, Aquifex aeolicus, UniProt O66465, T75A); ITC; T75A mutant): -11.7 ± 0.6 kcal/mol

Cn1c(=O)oc2ccc(-c3ccc(CC(C#N)NC(=O)C4CNCCCO4)c(F)c3)cc21 (stereo not shown)
subjects with TEAE (refers to: anaemia; human; 15 mg single dose, fasted): 0%

CNc1ccccc1C(=O)O[C@H]1C[C@H](n2cnc3c(N)ncnc32)O[C@@H]1COP(=O)(O)OP(=O)(O)O
pocket forward rate constant (Unconventional myosin-Va (Gallus gallus, UniProt Q02440, D297C/G292C/I296C/S293C/V295G); stopped-flow FRET; 10 °C, together with: MgCl2 2 mM): 0.19 ± 0.02 s⁻¹

[64Cu+2].c1ccc(CNCc2ccc(CN3CCCN4CCNCCCN(CC4)CC3)cc2)nc1
tissue uptake (CXCR4; NOD/SCID mouse, U87 and U87-stb-CXCR4 xenografts, muscle; iv, 90 min, no blocking dose, ex vivo): 0.28 ± 0.04 %ID/g

CC1=C(/C=C/C(C)=C/C=C/C(C)=C/C=O)C(C)(C)CCC1
Hill coefficient (CNGA1/CNGB1 (Bos taurus, UniProt Q00194+Q28181); ion current, inhibitor, inside-out patch clamp; Xenopus oocytes, heteromeric rod CNG; +100 mV, together with: cGMP 2 mM): 1.8

O=C(CCn1c2ccccc2c2ccc(Cl)cc21)N(c1ccc(F)cc1)c1ccc(F)cc1
maximum fold increase (Proteasome subunit alpha type-2/Proteasome subunit alpha type-6, 20S proteasome (Homo sapiens, UniProt P25787+P60900); proteolysis, activator, fluorogenic peptide; purified 20S proteasome; up to 30 µM, together with: Suc-LLVY-AMC, Z-LLE-AMC, Boc-LRR-AMC; relative to: vehicle): 4.5 ± 1.2

COc1cc(CNC(=O)C[C@H](C)CCC=C(C)C)ccc1OCc1cn(-c2ccccc2F)nn1
growth percent (SR leukaemia cells; SRB; 10 µM, 48 h): 73.4%

COc1cc(-c2cnc3nc2NCCCNS(=O)(=O)c2cccc(c2)N3)ccc1F
thermal shift ΔTm (Ephrin type-B receptor 1 (EPHB1, Homo sapiens, UniProt P54762); differential scanning fluorimetry; 10 µM; higher = stronger binding): 4.3 K

CC(=O)NCC(=O)N[C@@H](CC(=O)O)C(=O)N[C@@H](Cc1ccc(O)cc1)C(=O)N[C@@H](CO)C(=O)N[C@@H](Cc1c[nH]cn1)C(=O)N[C@H]1CSSC[C@@H](C(=O)N[C@H](C(=O)N[C@@H](Cc2ccc(O)cc2)C(=O)N2CCC[C@H]2C(=O)N[C@@H](CC(=O)O)C(=O)N2CCC[C@H]2C(=O)N[C@@H](CCC(=O)O)C(=O)NCC(=O)NCC(=O)NCC(N)=O)[C@@H](C)O)NC(=O)[C@H](CCCCN)NC(=O)[C@H](Cc2c[nH]c3ccccc23)NC(=O)[C@H](Cc2c[nH]c3ccccc23)NC(=O)[C@@H]2CCCN2C(=O)[C@H](Cc2ccc(O)cc2)NC(=O)[C@H](Cc2ccc(O)cc2)NC(=O)[C@H](CCCNC(=N)N)NC(=O)[C@H](CC(C)C)NC(=O)[C@@H]2CCCN2C(=O)[C@H](CO)NC1=O
maximum inhibition (Angiotensin-converting enzyme 2 (ACE2, Homo sapiens, UniProt Q9BYF1); enzyme activity; 1 h, pH 6.5, together with: 7-Mca-YVADAPK(Dnp) 50 µM): 47 ± 3%

O=c1c(-c2cnn(-c3ccccc3)c2)c(C(F)(F)F)oc2c(O)c(O)ccc12
di-ubiquitin synthesis (Cullin-2, with ROC1 (Homo sapiens, UniProt Q13617); inhibitor; up to 150 µM): no inhibition

COc1ccc2cc(NC(=O)c3cc(-c4cccnc4)nc4ccccc34)ccc2c1
kcat (Cytochrome P450 3A4 (CYP3A4, Homo sapiens, UniProt P08684); substrate, refers to: naphthalene-hydroxylated metabolite M2; baculosomes): 0.163 s⁻¹

COc1cc(F)c(C(C)C)cc1C1=C(CN2C(=O)O[C@H](c3cc(C(F)(F)F)cc(C(F)(F)F)c3)[C@@H]2C)CC(C)(C)CC1
maximum inhibition (Cholesteryl ester transfer protein (Homo sapiens, UniProt P11597); enzyme activity; healthy male subjects, plasma; oral, 200 mg single dose; relative to: baseline): 80.7%

CC(C)C[C@H](NC(=O)[C@H](CC(N)=O)NC(=O)[C@H](CCCNC(=N)N)NC(=O)[C@@H](N)CS)C(=O)O
remaining activity (PPO3; enzyme activity, inhibitor; 50 µM): 46.9%

O=C(O)Cc1ccc(O)cc1
ΔH (p-hydroxyphenylacetate 3-hydroxylase, reductase component (C1-hpah, Acinetobacter baumannii, UniProt Q6Q271); ITC; pH 7): -20.3 ± 1.11 kcal/mol

CC1=C(/C=C/C=C\C=C\C(C)=C\C=O)C(C)(C)CCC1
retinal released (Rhodopsin, apoprotein (opsin) (RHO, Bos taurus, UniProt P02699); 2 h, dark, together with: 40 mM hydroxylamine): ~2%

Cc1cc(=O)oc2cc(NC(=O)CCCCCCCC(=O)NO)ccc12
binding stoichiometry (Histone deacetylase 8 (HDAC8, Homo sapiens, UniProt Q9BY41); ITC; Tris-HCl buffer; concentration not given, pH 7.5, 25 °C): 0.8 ± 0.1

CCCCCCCC(=O)Nc1ccc(OC)nc1C
specific activity (Carboxylesterase 3 (CES3, Homo sapiens, UniProt Q6UWW8); substrate; 50 µM, pH 8, 37 °C, enzyme purity 3%): 6 pmol/min/µg
